Assay results pooled from the literature.
Several values in a cell are separate wells, animals, samples, runs or records.
Target: Mitotic checkpoint serine/threonine-protein kinase BUB1 (BUB1, Homo sapiens, UniProt O43683)

| SMILES | test | system | conditions | scale | measurement | result |
| --- | --- | --- | --- | --- | --- | --- |
| C=CC(=O)N1CCCC(n2c(=O)c3ncccc3n(Cc3ccc(Oc4ccccc4)cc3)c2=O)C1 (stereo not shown) | cell-free assay, competition with immobilised ligand | – | 1 µM | – | remaining binding | 66% |
| CNC(=O)C1CCN(c2cc(C)c(F)cc2NC(=O)c2ccc(-c3cc(O)ccc3C)c(C)c2)CC1 | binding, competition with immobilised ligand | – | 1 µM | – | remaining binding | 90% |
| C=CC(=O)N1CCc2ccc(-n3c(=O)ccc4cnc5ccc(-c6cnn(C)c6)cc5c43)cc21 | KINOMEscan | – | 1 µM | reference: DMSO control | remaining binding | 100% |
| COc1cc(Nc2nc(C)cc(-c3cnn4nc(OC)ccc34)n2)cc(C(F)(F)F)c1 | inhibitor | – | 1 µM | reference: control | remaining activity | 67% |
| CCN1CCN(Cc2ccc(C(=O)Nc3ccc(C)c(NCc4cnc5[nH]ccc5c4OC)c3)cc2C(F)(F)F)CC1 | binding, competition with immobilised ligand | – | 1 µM | – | remaining binding | 100% |
| Cc1cnc2nc1Nc1cccc(c1)COC/C=C/COCc1cc(ccc1OCCN1CCOCC1)N2 | binding | – | 0.1 µM | – | remaining binding | 99% |
| N[C@H]1CC[C@H](Nc2nccc(-c3cccnc3Oc3ccc(NC(=O)NC4CC4)c4ccccc34)n2)CC1 | kinobead competition pulldown | HEK293/HCT116 lysate mixture | 10 µM, 1 h, 4 °C | lower = stronger competition | log2 LFQ intensity | 20.3 and 17.3 and 19.1 and 19.3 |
| CC(C)=CC1OC(C)(C)C2C=C3C(=O)C(Cl)=CC(O)C3C3C(O)C4OC4C(=O)C132 (stereo not shown) | cell-free assay, competition with immobilised ligand | – | 10 µM | – | remaining binding | 64% |
| CNC1C[S+]2CC[S+]3CC[S+](C1)[Ru-4]321([N]=C=S)[n]2c3ccc(OC)cc3c3c4c(c5cc(F)c[n+]1c5c32)C(=O)NC4=O (stereo not shown) | KinomeScan | – | 0.1 µM | reference: untreated | remaining binding | 88% |
| CCn1cc(C(=O)O)c(=O)c2c(N)c(F)c(NC3CCCCC3)cc21 | kinase activity | – | 0.1 µM, with: ATP at Km | – | inhibition | -10.3% |
| COc1c(Cl)cccc1Nc1c(-c2ccncc2C#C[C@@]2(C)CCCN2C(=O)/C=C/CN(C)C)[nH]c2c1C(=O)NCC2 | binding, competition with immobilised ligand | – | 3 µM | – | remaining binding | 3.3% |
| Nc1ncc2c(n1)-c1c([nH]c3ccc(C4=CCOCC4)cc13)CCC2 | binding, competition with immobilised ligand | – | 1 µM | – | remaining binding | 71% |
| COc1cc(Nc2nccc(-c3cnn4nc(OC)ccc34)n2)cc(C(F)(F)F)c1 | binding, competition with immobilised ligand | – | 1 µM | – | remaining binding | 90% |

Excerpt of the above:
| SMILES | test | system | conditions | scale | measurement | result |
| --- | --- | --- | --- | --- | --- | --- |
| Cc1cnc2nc1Nc1cccc(c1)COC/C=C/COCc1cc(ccc1OCCN1CCOCC1)N2 | binding | – | 0.1 µM | – | remaining binding | 99% |
